Measurements collected from several papers.
± gives the spread as reported. * marks the point of attachment.
FBN1 residues 31-489: FBN1 31-489 (Homo sapiens, UniProt P35555)
Sequence of UniProt P35555 (whole entry, looked up): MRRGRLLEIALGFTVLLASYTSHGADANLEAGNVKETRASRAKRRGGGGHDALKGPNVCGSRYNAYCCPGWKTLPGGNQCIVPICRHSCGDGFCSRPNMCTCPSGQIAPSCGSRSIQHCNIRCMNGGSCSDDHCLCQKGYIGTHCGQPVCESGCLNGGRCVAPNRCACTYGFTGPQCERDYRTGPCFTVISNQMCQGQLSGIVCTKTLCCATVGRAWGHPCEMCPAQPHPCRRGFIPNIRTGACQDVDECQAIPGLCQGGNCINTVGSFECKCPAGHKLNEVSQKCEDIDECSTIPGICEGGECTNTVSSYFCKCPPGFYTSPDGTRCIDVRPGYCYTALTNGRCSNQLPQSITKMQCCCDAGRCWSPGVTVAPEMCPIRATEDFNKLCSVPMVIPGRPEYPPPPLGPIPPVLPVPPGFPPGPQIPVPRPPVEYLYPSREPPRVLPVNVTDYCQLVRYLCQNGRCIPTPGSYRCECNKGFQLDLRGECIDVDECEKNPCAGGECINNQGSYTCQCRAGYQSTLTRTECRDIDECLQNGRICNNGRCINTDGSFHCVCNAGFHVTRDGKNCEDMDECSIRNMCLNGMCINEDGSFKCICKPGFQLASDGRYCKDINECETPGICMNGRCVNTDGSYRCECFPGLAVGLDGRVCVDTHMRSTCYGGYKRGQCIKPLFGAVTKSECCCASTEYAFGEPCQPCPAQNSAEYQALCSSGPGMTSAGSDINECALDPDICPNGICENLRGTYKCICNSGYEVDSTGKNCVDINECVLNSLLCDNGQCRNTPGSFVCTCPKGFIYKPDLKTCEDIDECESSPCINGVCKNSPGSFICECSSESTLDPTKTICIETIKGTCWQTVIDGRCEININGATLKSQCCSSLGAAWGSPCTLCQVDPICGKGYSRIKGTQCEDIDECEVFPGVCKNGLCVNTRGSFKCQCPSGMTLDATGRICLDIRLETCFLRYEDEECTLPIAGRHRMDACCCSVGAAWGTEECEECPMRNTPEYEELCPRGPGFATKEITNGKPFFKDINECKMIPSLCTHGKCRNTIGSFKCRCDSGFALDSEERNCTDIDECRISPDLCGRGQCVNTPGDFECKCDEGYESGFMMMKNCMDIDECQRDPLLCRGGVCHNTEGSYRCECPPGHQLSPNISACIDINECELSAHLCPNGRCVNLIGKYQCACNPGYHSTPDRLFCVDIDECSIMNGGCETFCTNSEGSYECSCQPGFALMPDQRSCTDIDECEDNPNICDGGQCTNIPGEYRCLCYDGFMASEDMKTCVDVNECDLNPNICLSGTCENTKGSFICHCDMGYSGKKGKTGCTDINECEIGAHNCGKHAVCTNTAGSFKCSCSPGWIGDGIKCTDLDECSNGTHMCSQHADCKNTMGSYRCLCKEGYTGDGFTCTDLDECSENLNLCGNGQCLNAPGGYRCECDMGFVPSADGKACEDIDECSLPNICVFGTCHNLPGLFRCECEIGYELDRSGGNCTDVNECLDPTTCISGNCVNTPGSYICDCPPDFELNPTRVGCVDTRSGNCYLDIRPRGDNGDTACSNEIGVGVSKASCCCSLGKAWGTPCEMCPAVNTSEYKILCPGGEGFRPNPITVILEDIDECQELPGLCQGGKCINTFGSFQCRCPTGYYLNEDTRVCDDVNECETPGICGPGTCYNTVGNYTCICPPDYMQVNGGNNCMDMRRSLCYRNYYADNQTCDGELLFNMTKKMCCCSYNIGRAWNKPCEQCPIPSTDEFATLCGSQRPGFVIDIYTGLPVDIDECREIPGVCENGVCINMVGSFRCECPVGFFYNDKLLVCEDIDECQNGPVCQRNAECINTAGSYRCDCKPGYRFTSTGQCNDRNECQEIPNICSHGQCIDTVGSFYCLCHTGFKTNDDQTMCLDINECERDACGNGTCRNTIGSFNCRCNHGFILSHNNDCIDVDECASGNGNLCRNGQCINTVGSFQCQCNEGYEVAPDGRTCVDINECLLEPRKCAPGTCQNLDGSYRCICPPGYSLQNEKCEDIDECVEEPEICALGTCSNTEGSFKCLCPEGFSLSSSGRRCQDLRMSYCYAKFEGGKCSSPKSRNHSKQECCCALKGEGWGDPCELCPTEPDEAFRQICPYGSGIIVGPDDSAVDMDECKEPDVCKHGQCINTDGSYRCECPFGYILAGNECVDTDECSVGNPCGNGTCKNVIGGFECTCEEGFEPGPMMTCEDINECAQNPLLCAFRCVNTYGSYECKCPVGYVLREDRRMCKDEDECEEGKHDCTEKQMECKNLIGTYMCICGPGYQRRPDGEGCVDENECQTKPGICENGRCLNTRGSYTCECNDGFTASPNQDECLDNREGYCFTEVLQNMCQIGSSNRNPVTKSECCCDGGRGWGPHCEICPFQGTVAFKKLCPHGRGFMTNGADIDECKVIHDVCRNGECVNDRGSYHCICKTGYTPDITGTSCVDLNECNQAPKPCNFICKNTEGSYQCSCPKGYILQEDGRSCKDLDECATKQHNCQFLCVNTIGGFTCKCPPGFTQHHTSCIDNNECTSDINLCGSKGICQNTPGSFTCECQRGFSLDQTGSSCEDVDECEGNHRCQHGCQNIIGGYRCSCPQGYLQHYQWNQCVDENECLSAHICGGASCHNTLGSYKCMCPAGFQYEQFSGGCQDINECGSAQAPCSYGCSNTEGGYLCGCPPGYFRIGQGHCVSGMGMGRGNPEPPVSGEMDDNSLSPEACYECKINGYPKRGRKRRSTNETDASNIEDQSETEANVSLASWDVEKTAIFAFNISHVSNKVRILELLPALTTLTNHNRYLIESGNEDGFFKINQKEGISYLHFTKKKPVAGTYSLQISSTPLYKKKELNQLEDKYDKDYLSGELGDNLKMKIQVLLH
B1: wzb (Escherichia coli, UniProt P0AAB2); chain MFNNILVVCVGNICRSPTAERLLQRYHPELKVESAGLGALVGKGADPTAISVAAEHQLSLEGHCARQISRRLCRNYDLILTMEKRHIERLCEMAPEMRGKVMLFGHWDNECEIPDPYRKSRETFAAVYTLLERSARQWAQALNAEQV
B2: FBLN5 42-448 (Homo sapiens, UniProt Q9UBX5); chain DIDECRTIPEACRGDMMCVNQNGGYLCIPRTNPVYRGPYSNPYSTPYSGPYPAAAPPLSAPNYPTISRPLICRFGYQMDESNQCVDVDECATDSHQCNPTQICINTEGGYTCSCTDGYWLLEGQCLDIDECRYGYCQQLCANVPGSYSCTCNPGFTLNEDGRSCQDVNECATENPCVQTCVNTYGSFICRCDPGYELEEDGVHCSDMDECSFSEFLCQHECVNQPGTYFCSCPPGYILLDDNRSCQDINECEHRNHTCNLQQTCYNLQGGFKCIDPIRCEEPYLRISDNRCMCPAENPGCRDQPFTILYRDMDVVSGRSVPADIFQMQATTRYPGAYYIFQIKSGNEGREFYMRQTGPISATLVMTRPIKGPREIQLDLEMITVNTVINFRGSSVIRLRIYVSQYPF
B3: CyaY 1-106 (Escherichia coli, UniProt P27838); chain MNDSEFHRLADQLWLTIEERLDDWDGDSDIDCEINGGVLTITFENGSKIIINRQEPLHQVWLATKQGGYHFDLKGDEWICDRSGETFWDLLEQAATQQAGETVSFR
B4: FBLN5 288-448 (Homo sapiens, UniProt Q9UBX5); chain DINECEHRNHTCNLQQTCYNLQGGFKCIDPIRCEEPYLRISDNRCMCPAENPGCRDQPFTILYRDMDVVSGRSVPADIFQMQATTRYPGAYYIFQIKSGNEGREFYMRQTGPISATLVMTRPIKGPREIQLDLEMITVNTVINFRGSSVIRLRIYVSQYPF
B5: bfd 1-73 C43S (Pseudomonas aeruginosa, UniProt Q9HY80); chain MYVCLCQGVTDNQIRDAIYEGCCSYREVREATGVGTQCGKCASLAKQVVRETLNDLQSAQPVPAFGTTAFVAA
B6: LY96 LOS-bound (Homo sapiens, UniProt Q9Y6Y9); sequence looked up; chain QKQYWVCNSSDASISYTYCDKMQYPISINVNPCIELKRSKGLLHIFYIPRRDLKQLYFNLYITVNTMNLPKRKEVICRGSDDDYSFCRALKGETVNTTISFSFKGIKFSKGKYKCVVEAISGSPEEMLFCLEFVILHQPNSN
Sequence of UniProt P24807 (whole entry, looked up): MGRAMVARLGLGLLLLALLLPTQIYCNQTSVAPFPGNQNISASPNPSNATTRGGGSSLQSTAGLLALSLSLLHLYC
Sequence of UniProt P76387 (whole entry, unmodified, looked up): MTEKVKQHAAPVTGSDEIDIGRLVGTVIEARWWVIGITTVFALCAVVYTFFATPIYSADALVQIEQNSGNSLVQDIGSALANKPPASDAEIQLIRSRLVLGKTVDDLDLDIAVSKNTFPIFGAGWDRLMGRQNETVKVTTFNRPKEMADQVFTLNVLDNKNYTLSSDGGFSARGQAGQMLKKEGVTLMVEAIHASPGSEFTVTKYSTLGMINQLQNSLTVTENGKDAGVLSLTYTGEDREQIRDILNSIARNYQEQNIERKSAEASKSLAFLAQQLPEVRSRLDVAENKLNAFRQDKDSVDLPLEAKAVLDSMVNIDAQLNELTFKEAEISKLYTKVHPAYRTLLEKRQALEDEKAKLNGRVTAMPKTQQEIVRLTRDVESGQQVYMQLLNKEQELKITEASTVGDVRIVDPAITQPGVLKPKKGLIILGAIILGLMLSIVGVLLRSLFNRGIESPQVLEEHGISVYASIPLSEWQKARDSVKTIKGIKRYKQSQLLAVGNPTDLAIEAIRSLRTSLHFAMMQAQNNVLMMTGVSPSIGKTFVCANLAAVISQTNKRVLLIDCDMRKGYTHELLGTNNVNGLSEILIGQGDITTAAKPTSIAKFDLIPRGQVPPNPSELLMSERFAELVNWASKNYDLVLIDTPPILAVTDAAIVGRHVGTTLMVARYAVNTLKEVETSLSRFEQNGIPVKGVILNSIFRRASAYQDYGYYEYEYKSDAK
Sequence of UniProt P26151 (whole entry, looked up): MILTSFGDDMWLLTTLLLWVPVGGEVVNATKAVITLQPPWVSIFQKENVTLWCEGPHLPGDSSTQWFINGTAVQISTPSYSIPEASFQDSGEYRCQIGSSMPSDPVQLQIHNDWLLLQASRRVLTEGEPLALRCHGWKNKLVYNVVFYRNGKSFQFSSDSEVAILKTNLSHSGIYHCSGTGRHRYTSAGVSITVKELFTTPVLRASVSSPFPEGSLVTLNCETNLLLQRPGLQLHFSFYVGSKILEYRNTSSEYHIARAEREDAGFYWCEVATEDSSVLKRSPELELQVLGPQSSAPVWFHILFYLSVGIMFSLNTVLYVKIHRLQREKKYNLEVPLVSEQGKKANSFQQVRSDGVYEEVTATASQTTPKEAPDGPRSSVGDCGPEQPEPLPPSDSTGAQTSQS
Sequence of UniProt O00206 (whole entry, looked up): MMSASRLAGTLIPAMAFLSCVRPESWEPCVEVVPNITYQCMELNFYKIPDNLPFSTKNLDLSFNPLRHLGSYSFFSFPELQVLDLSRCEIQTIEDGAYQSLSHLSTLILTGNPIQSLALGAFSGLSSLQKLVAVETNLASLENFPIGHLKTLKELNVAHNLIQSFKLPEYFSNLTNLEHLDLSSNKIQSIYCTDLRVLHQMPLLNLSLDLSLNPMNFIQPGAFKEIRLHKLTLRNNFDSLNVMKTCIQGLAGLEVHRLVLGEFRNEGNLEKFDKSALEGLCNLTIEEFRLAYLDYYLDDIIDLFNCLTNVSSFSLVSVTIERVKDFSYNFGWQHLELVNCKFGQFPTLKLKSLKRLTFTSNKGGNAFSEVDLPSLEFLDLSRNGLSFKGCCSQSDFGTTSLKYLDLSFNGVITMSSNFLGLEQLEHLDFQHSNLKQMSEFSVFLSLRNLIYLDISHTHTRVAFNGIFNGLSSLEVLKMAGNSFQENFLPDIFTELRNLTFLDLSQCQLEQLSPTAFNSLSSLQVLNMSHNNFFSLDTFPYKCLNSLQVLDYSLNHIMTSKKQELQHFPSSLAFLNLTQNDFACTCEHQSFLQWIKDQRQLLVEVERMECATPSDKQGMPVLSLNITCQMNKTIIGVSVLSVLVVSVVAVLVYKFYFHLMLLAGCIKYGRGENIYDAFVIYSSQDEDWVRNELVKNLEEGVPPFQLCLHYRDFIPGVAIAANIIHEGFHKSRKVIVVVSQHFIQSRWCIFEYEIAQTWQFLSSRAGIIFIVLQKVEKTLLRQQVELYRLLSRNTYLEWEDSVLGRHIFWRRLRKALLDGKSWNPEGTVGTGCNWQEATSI
Sequence of UniProt Q9KWN0 (whole entry, looked up): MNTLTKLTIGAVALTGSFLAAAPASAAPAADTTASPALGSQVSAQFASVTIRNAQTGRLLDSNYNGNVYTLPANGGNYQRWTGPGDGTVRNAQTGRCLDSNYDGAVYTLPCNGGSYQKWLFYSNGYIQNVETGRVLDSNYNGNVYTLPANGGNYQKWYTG

With `B1 (wzb)` the Kd was 10.7 ± 1.3 µM (wzc 447-704 (Escherichia coli, UniProt P76387); ITC).
`B2 (FBLN5 42-448)` has a Kd of 0.063 ± 0.014 µM (FBN1 residues 31-489; ELISA).
`B3 (CyaY 1-106)` gave a Kd of 23 ± 3 µM (IscS 1-404 (Escherichia coli, UniProt P0A6B7); BLI; pH 7.5, 25 °C, NaCl 150 mM, together with: IscU 10 µM).
The Kd of `{FITC}-QNTDDVQTSF-OH (ACE2 796-805 (Homo sapiens); N-terminal FITC; FITC = O=C1OC2(c3ccc(O)cc3Oc3cc(O)ccc32)c2ccc(NC(=S)*)cc21)` is reported as 8.3 µM (SHANK1 655-761 (Homo sapiens, UniProt Q9Y566); FP; peptide).
`B4 (FBLN5 288-448)` gave a Kd of 0.187 ± 0.031 µM (FBN1 residues 31-489; ELISA).
The Kd of `TVTRALRDLMQGILQKI (pscF 69-85 (Pseudomonas aeruginosa, UniProt P95434); sequence looked up)` is reported as 10.5 µM (pscG (Pseudomonas aeruginosa, UniProt P95435); ITC; peptide; pH 7.0, 25 °C).
For `CD24/Siglec-10 blocking peptide, D-amino acids`, the Kd was 0.22 µM (Cd24a (Mus musculus, UniProt P24807); MST).
For `FCGRT (UniProt P55899)`, the Kd was 0.06 µM (protein Fc fusion, IgG1 (Homo sapiens, UniProt Q9KWN0); SPR).
With `B5 (bfd 1-73 C43S)` the Kd was 3.8 ± 0.2 µM (bfrB 1-158 extra Met0 (Pseudomonas aeruginosa, UniProt Q9HY79); SPR; pH 7.4, 22 °C).
`ParE2 (Vibrio cholerae)` gave a Kd of 0.01 µM (gyrA 2-523 (Escherichia coli, UniProt P0AES4); SPR; apparent, heterogeneous ligand model).
`Fcgr1 (Mus musculus, UniProt P26151)` gave a Kd of 0.405 ± 0.034 µM (Ighg3 Fc domain, C-terminal cysteine (Mus musculus); SPR).
With `B6 (LY96 LOS-bound)` the Kd was 0.000528 ± 0.0001 µM (TLR4 (Homo sapiens, UniProt O00206); radioligand binding; HEK293T; 30 min, 37 °C).

Some of these lines once more:
`ParE2 (Vibrio cholerae)` gave a Kd of 0.01 µM (gyrA 2-523 (Escherichia coli, UniProt P0AES4); SPR; apparent, heterogeneous ligand model).
`Fcgr1 (Mus musculus, UniProt P26151)` gave a Kd of 0.405 ± 0.034 µM (Ighg3 Fc domain, C-terminal cysteine (Mus musculus); SPR).
